Measurements of several laboratories.
Parts stem from different laboratories: compare values within a part only. “And” joins repeats or separate records; there may be more than shown.
Sequence of UniProt O95835 (whole entry, looked up): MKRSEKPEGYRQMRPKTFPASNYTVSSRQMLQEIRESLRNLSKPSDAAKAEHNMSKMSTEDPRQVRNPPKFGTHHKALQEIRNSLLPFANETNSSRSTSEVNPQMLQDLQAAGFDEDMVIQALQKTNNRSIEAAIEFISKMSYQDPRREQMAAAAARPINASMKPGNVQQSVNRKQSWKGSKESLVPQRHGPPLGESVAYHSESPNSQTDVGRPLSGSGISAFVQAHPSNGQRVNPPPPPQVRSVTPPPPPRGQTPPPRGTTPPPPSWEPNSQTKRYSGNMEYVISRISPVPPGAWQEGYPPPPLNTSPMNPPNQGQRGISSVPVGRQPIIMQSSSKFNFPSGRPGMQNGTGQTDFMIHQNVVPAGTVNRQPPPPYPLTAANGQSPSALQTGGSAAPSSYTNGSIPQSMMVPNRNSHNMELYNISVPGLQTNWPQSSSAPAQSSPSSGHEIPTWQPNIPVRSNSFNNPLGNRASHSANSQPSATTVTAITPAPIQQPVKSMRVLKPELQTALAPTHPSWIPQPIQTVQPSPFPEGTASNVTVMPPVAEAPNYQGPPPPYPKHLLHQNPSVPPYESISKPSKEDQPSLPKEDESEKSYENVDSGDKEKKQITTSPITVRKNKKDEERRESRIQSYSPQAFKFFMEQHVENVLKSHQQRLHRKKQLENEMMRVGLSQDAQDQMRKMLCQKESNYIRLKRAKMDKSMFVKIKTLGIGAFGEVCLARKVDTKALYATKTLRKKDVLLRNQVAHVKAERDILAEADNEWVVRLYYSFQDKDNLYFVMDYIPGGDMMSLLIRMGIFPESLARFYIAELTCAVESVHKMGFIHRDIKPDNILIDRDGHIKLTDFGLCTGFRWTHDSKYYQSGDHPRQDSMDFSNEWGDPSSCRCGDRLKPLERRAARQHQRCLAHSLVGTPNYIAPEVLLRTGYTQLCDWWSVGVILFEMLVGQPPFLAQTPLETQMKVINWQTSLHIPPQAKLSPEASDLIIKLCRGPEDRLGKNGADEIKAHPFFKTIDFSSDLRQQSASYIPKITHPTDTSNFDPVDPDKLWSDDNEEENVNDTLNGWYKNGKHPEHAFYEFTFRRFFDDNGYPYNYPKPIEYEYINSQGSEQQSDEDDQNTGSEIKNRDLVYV
Sequence of UniProt Q9Y2H1 (whole entry, looked up): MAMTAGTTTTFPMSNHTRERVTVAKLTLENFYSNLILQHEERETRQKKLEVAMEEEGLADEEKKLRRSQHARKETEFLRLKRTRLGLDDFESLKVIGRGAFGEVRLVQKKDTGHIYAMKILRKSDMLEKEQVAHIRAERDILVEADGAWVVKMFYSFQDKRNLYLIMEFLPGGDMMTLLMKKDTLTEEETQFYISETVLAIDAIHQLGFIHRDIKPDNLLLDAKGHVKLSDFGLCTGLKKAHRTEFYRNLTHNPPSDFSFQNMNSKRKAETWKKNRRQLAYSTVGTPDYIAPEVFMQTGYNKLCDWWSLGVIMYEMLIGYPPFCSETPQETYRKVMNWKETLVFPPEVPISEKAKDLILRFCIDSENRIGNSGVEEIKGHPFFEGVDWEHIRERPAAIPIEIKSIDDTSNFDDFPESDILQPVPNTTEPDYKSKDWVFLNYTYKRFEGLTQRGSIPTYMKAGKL
Sequence of UniProt P50613 (whole entry, looked up): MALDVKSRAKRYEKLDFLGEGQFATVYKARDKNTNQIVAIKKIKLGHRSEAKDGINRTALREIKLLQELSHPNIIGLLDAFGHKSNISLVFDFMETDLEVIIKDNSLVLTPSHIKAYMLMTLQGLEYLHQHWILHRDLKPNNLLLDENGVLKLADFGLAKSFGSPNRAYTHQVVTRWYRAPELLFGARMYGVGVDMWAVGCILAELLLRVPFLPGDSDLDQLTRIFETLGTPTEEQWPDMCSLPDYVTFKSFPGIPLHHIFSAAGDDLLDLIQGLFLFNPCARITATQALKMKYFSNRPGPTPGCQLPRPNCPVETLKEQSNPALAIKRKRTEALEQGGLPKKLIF

Study 1
Target: Bromodomain-containing protein 4, BD1 (BRD4, Homo sapiens, UniProt O60885)
Concentration: 50 µM
Compound | inhibition [%]
COc1cc(Nc2ncc(F)c(Nc3ccc4c(n3)NC(=O)C(C)(C)O4)n2)cc(OC)c1OC | 23.2
COc1cc(N2CCC(N3CCN(C)CC3)CC2)ccc1Nc1ncc(Cl)c(Nc2ccccc2P(C)(C)=O)n1 | 27.4
CC1(C)CNc2cc(NC(=O)c3cccnc3NCc3ccncc3)ccc21 | 52.8
CNC(=O)c1cc(Oc2ccc(NC(=O)Nc3ccc(Cl)c(C(F)(F)F)c3)cc2)ccn1 | 8.6
CCS(=O)(=O)N1CC(CC#N)(n2cc(-c3ncnc4[nH]ccc34)cn2)C1 | 1.6
COc1ncc(-c2ccc3nccc(-c4ccnnc4)c3c2)cc1NS(=O)(=O)c1ccc(F)cc1F | 13.6
Cc1[nH]c(/C=C2\C(=O)Nc3ccccc32)c(C)c1CCC(=O)O | 18.6
CNC(=O)c1nn(C)c2c1C(C)(C)Cc1cnc(Nc3ccc(N4CCN(C)CC4)cc3)nc1-2 | 53.9
CC1(COc2ccc3c(c2)ncn3-c2ccc3cccc(N4CCC(N)CC4)c3n2)COC1 | 10.9

Study 2
Target: Calcium/calmodulin-dependent protein kinase type II subunit alpha (CAMK2A, Homo sapiens, UniProt Q9UQM7)
Sequence of UniProt Q9UQM7 (whole entry, looked up): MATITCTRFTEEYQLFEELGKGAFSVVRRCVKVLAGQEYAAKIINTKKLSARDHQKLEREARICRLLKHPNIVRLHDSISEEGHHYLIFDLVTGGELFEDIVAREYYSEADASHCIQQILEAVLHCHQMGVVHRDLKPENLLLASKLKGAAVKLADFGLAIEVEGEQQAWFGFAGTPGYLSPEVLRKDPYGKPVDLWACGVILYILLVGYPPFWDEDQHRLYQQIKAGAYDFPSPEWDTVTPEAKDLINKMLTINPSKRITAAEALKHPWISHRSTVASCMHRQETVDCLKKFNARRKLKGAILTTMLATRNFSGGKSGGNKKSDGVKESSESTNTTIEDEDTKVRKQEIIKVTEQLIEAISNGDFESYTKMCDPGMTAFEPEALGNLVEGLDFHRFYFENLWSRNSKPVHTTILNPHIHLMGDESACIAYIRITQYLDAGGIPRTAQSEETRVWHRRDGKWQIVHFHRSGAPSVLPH
Effect on: enzyme activity
Action: inhibitor
Concentration: 10 µM
SMILES | inhibition
O=C(O)CNC(=O)c1c(O)cc(CCc2ccccc2)n2ncnc12 | -3%
O=c1c(O)c(-c2ccc(O)cc2)oc2cc(O)cc(O)c12 | -7%
Cc1cc(-c2ccc(/N=N/c3ccc4c(S(=O)(=O)O)cc(S(=O)(=O)O)c(N)c4c3O)c(C)c2)ccc1/N=N/c1ccc2c(S(=O)(=O)O)cc(S(=O)(=O)O)c(N)c2c1O | 89%
NC(=O)[C@@H]1C[C@]2(NC(=O)NC2=O)c2cc(F)ccc2O1 | -8%
C[S+]([O-])CCCC/C(=N\OS(=O)(=O)O)S[C@@H]1O[C@H](CO)[C@@H](O)[C@H](O)[C@H]1O (some centres unmarked) | 5%
CC(C)=CCC[C@@H](C)CC=O | 2%
CN[C@H]1C(=O)N[C@@H]2Cc3ccc(cc3)Oc3cc4cc(c3O[C@@H]3O[C@H](C(=O)O)[C@@H](O)[C@H](O)[C@H]3NC(=O)CCCCCCCCC(C)C)Oc3ccc(cc3Cl)[C@@H](O)[C@@H]3NC(=O)[C@H](NC(=O)[C@@H]4NC(=O)[C@@H](NC2=O)c2cc(cc(O)c2Cl)Oc2cc1ccc2O)c1ccc(O)c(c1)-c1c(O[C@H]2O[C@H](CO)[C@@H](O)[C@H](O)[C@@H]2O)cc(O)cc1[C@@H](C(=O)NCCCN(C)C)NC3=O | 0%
CCC/N=C1\S/C(=C\c2ccc(OC[C@H](O)CO)c(Cl)c2)C(=O)N1c1ccccc1C | 4%

Study 3
SMILES: Cc1cc(-n2nc(Cc3cc(F)cc(C(F)(F)F)c3)nc2C)ccc1C(N)=O
Concentration: 1 µM
target | effect on | method | remaining binding [%]
Vascular endothelial growth factor receptor 3 (FLT4, Homo sapiens, UniProt P35916) | cell-free assay | competition with immobilised ligand | 97
Casein kinase I isoform gamma-2 (CSNK1G2, Homo sapiens, UniProt P78368) | cell-free assay | competition with immobilised ligand | 79
Ephrin type-B receptor 6 (EPHB6, Homo sapiens, UniProt O15197) | cell-free assay | competition with immobilised ligand | 100
Tyrosine-protein kinase ABL1, phosphorylated (ABL1, Homo sapiens, UniProt P00519, F317I) | binding | – | 85
Tyrosine-protein kinase Fes/Fps (FES, Homo sapiens, UniProt P07332) | cell-free assay | competition with immobilised ligand | 100
Megakaryocyte-associated tyrosine-protein kinase (MATK, Homo sapiens, UniProt P42679) | cell-free assay | competition with immobilised ligand | 100
Serine/threonine-protein kinase LATS1 (LATS1, Homo sapiens, UniProt O95835) | cell-free assay | competition with immobilised ligand | 100
Serine/threonine-protein kinase 17B (STK17B, Homo sapiens, UniProt O94768) | cell-free assay | competition with immobilised ligand | 81
Cyclin-dependent kinase 7 (CDK7, Homo sapiens, UniProt P50613) | cell-free assay | competition with immobilised ligand | 100
Cyclin-dependent kinase 5 (CDK5, Homo sapiens, UniProt Q00535) | cell-free assay | competition with immobilised ligand | 100
Tyrosine-protein kinase JAK1, JH2 (JAK1, Homo sapiens, UniProt P23458) | cell-free assay | competition with immobilised ligand | 100
Phosphatidylinositol 4-phosphate 5-kinase type-1 alpha (PIP5K1A, Homo sapiens, UniProt Q99755) | cell-free assay | competition with immobilised ligand | 100
Ankyrin repeat and protein kinase domain-containing protein 1 (ANKK1, Homo sapiens, UniProt Q8NFD2) | cell-free assay | competition with immobilised ligand | 100
Mitogen-activated protein kinase kinase kinase 5 (MAP3K5, Homo sapiens, UniProt Q99683) | cell-free assay | competition with immobilised ligand | 100
Serine/threonine-protein kinase PLK3 (PLK3, Homo sapiens, UniProt Q9H4B4) | cell-free assay | competition with immobilised ligand | 100
Serine/threonine-protein kinase 38-like (STK38L, Homo sapiens, UniProt Q9Y2H1) | binding | competition with immobilised ligand | 49
Tyrosine-protein kinase Tec (TEC, Homo sapiens, UniProt P42680) | binding | competition with immobilised ligand | 100
Serine/threonine-protein kinase B-raf (BRAF, Homo sapiens, UniProt P15056, V600E) | cell-free assay | competition with immobilised ligand | 100
Macrophage colony-stimulating factor 1 receptor (CSF1R, Homo sapiens, UniProt P07333) | cell-free assay | competition with immobilised ligand | 100
Angiopoietin-1 receptor (TEK, Homo sapiens, UniProt Q02763) | cell-free assay | competition with immobilised ligand | 92
Mitogen-activated protein kinase 6 (MAPK6, Homo sapiens, UniProt Q16659) | cell-free assay | competition with immobilised ligand | 100
Phosphatidylinositol 4,5-bisphosphate 3-kinase catalytic subunit beta isoform (PIK3CB, Homo sapiens, UniProt P42338) | cell-free assay | competition with immobilised ligand | 85
Protein-tyrosine kinase 2-beta (PTK2B, Homo sapiens, UniProt Q14289) | cell-free assay | competition with immobilised ligand | 100
ALK tyrosine kinase receptor (ALK, Homo sapiens, UniProt Q9UM73) | cell-free assay | competition with immobilised ligand | 100
Tyrosine-protein kinase ABL1, non-phosphorylated (ABL1, Homo sapiens, UniProt P00519, T315I) | cell-free assay | competition with immobilised ligand | 100

Study 4
Target: DNA polymerase theta, ATPase domain (POLQ, Homo sapiens, UniProt O75417)
Sequence of UniProt O75417 (whole entry, unmodified, looked up): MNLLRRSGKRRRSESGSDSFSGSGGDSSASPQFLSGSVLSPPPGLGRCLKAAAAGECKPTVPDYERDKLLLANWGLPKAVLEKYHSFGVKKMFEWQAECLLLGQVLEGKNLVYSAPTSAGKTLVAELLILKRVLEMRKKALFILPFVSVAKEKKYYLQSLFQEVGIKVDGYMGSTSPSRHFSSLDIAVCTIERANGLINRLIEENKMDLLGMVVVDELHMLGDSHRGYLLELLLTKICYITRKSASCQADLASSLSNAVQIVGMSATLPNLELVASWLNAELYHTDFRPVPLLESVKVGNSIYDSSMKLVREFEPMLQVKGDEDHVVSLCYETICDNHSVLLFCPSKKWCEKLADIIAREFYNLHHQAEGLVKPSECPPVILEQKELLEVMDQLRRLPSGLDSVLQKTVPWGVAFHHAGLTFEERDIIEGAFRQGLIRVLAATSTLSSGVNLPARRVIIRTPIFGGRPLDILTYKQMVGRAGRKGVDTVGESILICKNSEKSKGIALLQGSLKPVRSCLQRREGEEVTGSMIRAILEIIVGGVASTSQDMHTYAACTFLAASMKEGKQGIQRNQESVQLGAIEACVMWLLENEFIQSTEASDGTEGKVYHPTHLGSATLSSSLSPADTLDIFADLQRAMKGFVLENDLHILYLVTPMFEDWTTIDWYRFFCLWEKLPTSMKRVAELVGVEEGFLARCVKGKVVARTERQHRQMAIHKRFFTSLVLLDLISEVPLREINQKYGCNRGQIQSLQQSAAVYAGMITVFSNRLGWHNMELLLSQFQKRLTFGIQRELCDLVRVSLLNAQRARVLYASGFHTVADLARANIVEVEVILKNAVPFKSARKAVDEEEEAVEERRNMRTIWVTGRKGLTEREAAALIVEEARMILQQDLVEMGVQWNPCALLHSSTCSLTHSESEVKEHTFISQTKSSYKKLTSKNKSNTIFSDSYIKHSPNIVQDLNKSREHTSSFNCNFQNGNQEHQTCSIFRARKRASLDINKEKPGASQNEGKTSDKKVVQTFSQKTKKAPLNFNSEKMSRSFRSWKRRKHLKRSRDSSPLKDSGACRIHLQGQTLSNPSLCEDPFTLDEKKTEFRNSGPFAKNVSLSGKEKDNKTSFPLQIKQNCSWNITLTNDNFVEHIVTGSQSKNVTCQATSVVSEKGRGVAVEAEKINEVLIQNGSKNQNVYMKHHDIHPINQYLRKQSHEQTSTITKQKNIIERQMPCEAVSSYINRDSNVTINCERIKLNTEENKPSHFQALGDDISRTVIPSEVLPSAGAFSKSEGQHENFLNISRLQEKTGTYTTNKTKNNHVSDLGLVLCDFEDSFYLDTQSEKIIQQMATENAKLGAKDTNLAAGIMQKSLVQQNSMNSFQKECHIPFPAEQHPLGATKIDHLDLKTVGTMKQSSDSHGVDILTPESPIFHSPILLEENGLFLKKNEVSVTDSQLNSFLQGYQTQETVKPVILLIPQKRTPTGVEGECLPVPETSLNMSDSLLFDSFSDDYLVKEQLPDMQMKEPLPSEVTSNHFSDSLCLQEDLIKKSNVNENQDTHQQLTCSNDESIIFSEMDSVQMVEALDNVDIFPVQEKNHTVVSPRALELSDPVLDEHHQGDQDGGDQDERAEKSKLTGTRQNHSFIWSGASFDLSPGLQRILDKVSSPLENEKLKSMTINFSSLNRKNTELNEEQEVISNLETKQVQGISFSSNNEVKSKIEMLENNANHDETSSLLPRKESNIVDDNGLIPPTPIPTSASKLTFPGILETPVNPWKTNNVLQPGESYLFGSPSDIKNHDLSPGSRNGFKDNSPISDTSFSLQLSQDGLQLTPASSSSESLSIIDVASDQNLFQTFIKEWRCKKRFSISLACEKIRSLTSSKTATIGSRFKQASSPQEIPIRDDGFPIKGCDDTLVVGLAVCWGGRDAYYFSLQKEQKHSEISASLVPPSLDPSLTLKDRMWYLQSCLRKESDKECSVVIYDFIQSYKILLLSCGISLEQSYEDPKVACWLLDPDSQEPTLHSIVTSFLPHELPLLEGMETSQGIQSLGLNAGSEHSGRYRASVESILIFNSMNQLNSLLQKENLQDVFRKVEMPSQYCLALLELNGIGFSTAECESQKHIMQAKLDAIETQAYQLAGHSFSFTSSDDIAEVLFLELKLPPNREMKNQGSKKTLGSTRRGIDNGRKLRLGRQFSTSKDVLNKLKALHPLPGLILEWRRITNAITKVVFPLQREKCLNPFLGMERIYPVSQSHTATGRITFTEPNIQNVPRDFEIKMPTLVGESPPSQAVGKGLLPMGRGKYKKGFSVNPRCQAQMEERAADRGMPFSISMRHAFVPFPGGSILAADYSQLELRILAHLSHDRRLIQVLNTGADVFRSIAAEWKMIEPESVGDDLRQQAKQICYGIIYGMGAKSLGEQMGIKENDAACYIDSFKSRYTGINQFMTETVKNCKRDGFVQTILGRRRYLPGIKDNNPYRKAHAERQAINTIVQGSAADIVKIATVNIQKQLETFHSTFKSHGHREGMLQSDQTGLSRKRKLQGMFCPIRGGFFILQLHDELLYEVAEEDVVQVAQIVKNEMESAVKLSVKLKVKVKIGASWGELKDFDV
Effect on: enzyme activity
Action: inhibitor
Concentration: 77 µM
Relative to: untreated
Compound | remaining activity
NC[C@@H]1O[C@H](c2ccccc2)Cc2c1ccc(O)c2O | 98.8%
Nc1ncnc2c1ncn2[C@@H]1O[C@H](COP(=O)(O)O)[C@@H](O)[C@H]1O | 99.7%
Nc1nccc2c1ncn2[C@@H]1C=C(CO)[C@@H](O)[C@H]1O | 105%
CS(=O)(=O)c1ccc(C(=O)Nc2ccc(Cl)c(-c3ccccn3)c2)c(Cl)c1 | 105%
O=C1NC(=O)/C(=C\c2ccc(-c3ccc(F)cc3)o2)S1 | 91.6%
CC(C(=O)O)c1ccc(C(=O)c2cccs2)cc1 (centres unmarked) | 89% and 108%
C=CC[C@H](N)C(=O)O | 86.5%
Nc1ccc(S(=O)(=O)Nc2ccnn2-c2ccccc2)cc1 | 90.5%

A few entries again (study 3):
target | effect on | method | remaining binding [%]
Cyclin-dependent kinase 7 (CDK7, Homo sapiens, UniProt P50613) | cell-free assay | competition with immobilised ligand | 100
Serine/threonine-protein kinase LATS1 (LATS1, Homo sapiens, UniProt O95835) | cell-free assay | competition with immobilised ligand | 100
Phosphatidylinositol 4-phosphate 5-kinase type-1 alpha (PIP5K1A, Homo sapiens, UniProt Q99755) | cell-free assay | competition with immobilised ligand | 100
Tyrosine-protein kinase ABL1, phosphorylated (ABL1, Homo sapiens, UniProt P00519, F317I) | binding | – | 85
Tyrosine-protein kinase ABL1, non-phosphorylated (ABL1, Homo sapiens, UniProt P00519, T315I) | cell-free assay | competition with immobilised ligand | 100
Mitogen-activated protein kinase 6 (MAPK6, Homo sapiens, UniProt Q16659) | cell-free assay | competition with immobilised ligand | 100
Protein-tyrosine kinase 2-beta (PTK2B, Homo sapiens, UniProt Q14289) | cell-free assay | competition with immobilised ligand | 100
Angiopoietin-1 receptor (TEK, Homo sapiens, UniProt Q02763) | cell-free assay | competition with immobilised ligand | 92
